Results gathered from unrelated publications.
Compare with care: the assays were run in different laboratories. ± gives the spread as reported.
rep main protease: Replicase polyprotein 1ab, main protease (rep, Severe acute respiratory syndrome coronavirus 2, UniProt P0DTD1)
rep nsp14 N7-methyltransferase: Replicase polyprotein 1ab, nsp14 N7-methyltransferase (rep, Severe acute respiratory syndrome coronavirus 2, UniProt P0DTD1)

| Molecule | tested on | test | system | conditions | scale | endpoint | result |
| --- | --- | --- | --- | --- | --- | --- | --- |
| Cc1ccc(C)c(C(=O)N2CC[C@@H]([C@@H]3CCCN(C(=O)c4cccc5oc(=O)[nH]c45)C3)C2)c1 | rep main protease | enzyme activity, inhibitor | – | 5 µM, mean of runs | – | inhibition | 12.3% |
| N#Cc1ncccn1 | rep main protease | reporter gene (Gaussia luciferase), inhibitor | – | 20 µM | – | inhibition | -0.299% |
| ivermectin | Replicase polyprotein 1ab, nsp13 helicase (rep, Severe acute respiratory syndrome coronavirus 2, UniProt P0DTD1) | ATP hydrolysis, inhibitor, ADP-Glo | – | concentration not given | – | ATPase inhibition | no inhibition |
| CC1CC(c2ccc(C(=O)O)cc2)=NN1c1ccc(C#N)cc1.N (stereo not drawn) | Replicase polyprotein 1ab, nsp14 methyltransferase (rep, Severe acute respiratory syndrome coronavirus 2, UniProt P0DTD1) | – | – | – | – | lipophilic ligand efficiency | 1.7 |
| Cl.NCCc1ccc(S(=O)(=O)F)cc1 | rep main protease | reporter gene (mKate2), inhibitor | – | 20 µM | – | inhibition | -0.475% |
| COC(=O)C1=C(C(=O)OC)C(c2ccc(Cl)cc2)c2sc(=O)[nH]c2S1 (stereo not drawn) | rep nsp14 N7-methyltransferase | N7-methyltransferase activity, inhibitor, Py-FLINT | – | – | – | Hill slope | 0.74 ± 0.24 |
| CC(=O)Cc1cc(=O)c2c(C)cc(O)c([C@@H]3O[C@H](CO)[C@@H](O)[C@H](O)[C@H]3O)c2o1 | rep main protease | reporter gene (mKate2), inhibitor | – | 20 µM | – | inhibition | -0.136% |
| O=C(NC[C@H](NC(=O)c1cncc2sccc12)c1ccc2ccccc2c1)c1cncs1 | rep main protease | enzyme activity, inhibitor | – | 5 µM, mean of runs | – | inhibition | 13.4% |
| CC[C@H](C)[C@H](NC(=O)[C@H](CC(C)C)NC(=O)[C@H](Cc1c[nH]c2ccccc12)NC(=O)[C@H](CCC(N)=O)NC(=O)[C@@H](NC(=O)[C@H](Cc1ccccc1)NC(=O)[C@H](C)NC(=O)[C@H](CCCCNC(=O)COCCOCCNC(=O)COCCOCCNC(=O)CC[C@H](NC(=O)CCCCCCCCCCCCCCCCCCC(=O)O)C(=O)O)NC(=O)[C@H](CCC(N)=O)NC(=O)[C@H](C)NC(=O)[C@@H](NC(=O)[C@H](CCCCN)NC(=O)[C@H](CC(=O)O)NC(=O)[C@H](CC(C)C)NC(=O)C(C)(C)NC(=O)[C@@H](NC(=O)[C@H](CO)NC(=O)[C@H](Cc1ccc(O)cc1)NC(=O)[C@H](CC(=O)O)NC(=O)[C@H](CO)NC(=O)[C@@H](NC(=O)[C@H](Cc1ccccc1)NC(=O)[C@@H](NC(=O)CNC(=O)[C@H](CCC(=O)O)NC(=O)C(C)(C)NC(=O)[C@@H](N)Cc1ccc(O)cc1)[C@@H](C)O)[C@@H](C)O)[C@@H](C)CC)[C@@H](C)CC)C(C)C)C(=O)N[C@@H](C)C(=O)NCC(=O)NCC(=O)N1CCC[C@H]1C(=O)N[C@@H](CO)C(=O)N[C@@H](CO)C(=O)NCC(=O)N[C@@H](C)C(=O)N1CCC[C@H]1C(=O)N1CCC[C@H]1C(=O)N1CCC[C@H]1C(=O)N[C@@H](CO)C(N)=O | – | – | patients with type 2 diabetes | 5 mg, day 29, proof of concept, LS mean | baseline: baseline | pulse rate change | 0.96 bpm |
| Cc1cc2c(C(C)C)c(O)c(O)c(C=O)c2c(O)c1-c1c(C)cc2c(C(C)C)c(O)c(O)c(C=O)c2c1O | rep nsp14 N7-methyltransferase | N7-methyltransferase activity, inhibitor, Py-FLINT | – | – | – | Hill slope | 1.1 ± 0.08 |
| O=C(/C=C\c1cnccn1)NC[C@@H](NC(=O)c1cn[nH]c(=O)c1)c1ccc2ccccc2c1 | rep main protease | enzyme activity, inhibitor | – | 5 µM, mean of runs | – | inhibition | 13.2% |
| CC(C)(Oc1ccc(C(=O)c2ccc(Cl)cc2)cc1)C(=O)O | rep main protease | reporter gene (mKate2), inhibitor | – | 20 µM | – | inhibition | -0.55% |
| CC(C)=CCOc1ccc(/C=C/C(=O)c2ccc(OCC=C(C)C)cc2OCC(=O)O)cc1 | rep nsp14 N7-methyltransferase | N7-methyltransferase activity, inhibitor, Py-FLINT | – | – | – | Hill slope | 2.33 ± 0.15 |
| COc1cc(O)cc2oc(-c3ccc(O)c(O)c3)c(O)c(=O)c12 | rep main protease | reporter gene (Gaussia luciferase), inhibitor | – | 20 µM | – | inhibition | 0.599% |
| Cc1ccccc1C1(C(=O)NC[C@H](NC(=O)Cn2cncn2)c2ccc3ccccc3c2)CC1 | rep main protease | enzyme activity, inhibitor | – | 5 µM, run 1 | – | inhibition | 6.1% |
| CCC(C(=O)Nc1cc(NC2COC2)ccc1C)n1cc(F)cc2nc(SCc3ccc(F)cc3)nc1-2 (stereo not drawn) | Replicase polyprotein 1ab, papain-like protease (rep, Severe acute respiratory syndrome coronavirus 2, UniProt P0DTD1) | binding | – | – | – | koff | 0.265 ± 0.028 s⁻¹ |
| Nc1ncnc2c([C@@H]3N[C@H](CO)[C@@H](O)[C@H]3O)c[nH]c12 | Zaire ebolavirus | antibody staining | human macrophages | 0.8 µM | – | antigen-positive cells | 49.2% |
| O=C(NC[C@H](NC(=O)c1cncc2ccccc12)c1ccc2ccccc2c1)C1=COCC1 | rep main protease | enzyme activity, inhibitor | – | 5 µM, mean of runs | – | inhibition | 13.7% |

A few entries again:
| Molecule | tested on | test | system | conditions | scale | endpoint | result |
| --- | --- | --- | --- | --- | --- | --- | --- |
| CC(=O)Cc1cc(=O)c2c(C)cc(O)c([C@@H]3O[C@H](CO)[C@@H](O)[C@H](O)[C@H]3O)c2o1 | rep main protease | reporter gene (mKate2), inhibitor | – | 20 µM | – | inhibition | -0.136% |
| CC(C)=CCOc1ccc(/C=C/C(=O)c2ccc(OCC=C(C)C)cc2OCC(=O)O)cc1 | rep nsp14 N7-methyltransferase | N7-methyltransferase activity, inhibitor, Py-FLINT | – | – | – | Hill slope | 2.33 ± 0.15 |
| O=C(NC[C@H](NC(=O)c1cncc2sccc12)c1ccc2ccccc2c1)c1cncs1 | rep main protease | enzyme activity, inhibitor | – | 5 µM, mean of runs | – | inhibition | 13.4% |
